Measured values from different studies.
Parts stem from different laboratories: compare values within a part only. Changes are numbered by the printed parent chain.

Study 1
Target: ABI1, truncated, D143A, DHFR fusion (Arabidopsis thaliana)
Technique: DHFR PCA, deep sequencing
Matrix: yeast
Notes: methotrexate growth selection, single substitutions
Together with: (+)-ABA 0.39 µM
Reference: wild-type fitted maximum
Direction: higher = stronger binding
Endpoint: relative binding score
Parent: PYL1, truncated, DHFR fusion (Arabidopsis thaliana); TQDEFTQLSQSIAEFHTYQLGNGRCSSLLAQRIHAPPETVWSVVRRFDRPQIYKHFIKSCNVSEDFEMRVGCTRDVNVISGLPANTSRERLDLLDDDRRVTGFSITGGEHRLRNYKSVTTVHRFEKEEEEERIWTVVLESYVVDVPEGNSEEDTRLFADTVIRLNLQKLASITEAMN; partner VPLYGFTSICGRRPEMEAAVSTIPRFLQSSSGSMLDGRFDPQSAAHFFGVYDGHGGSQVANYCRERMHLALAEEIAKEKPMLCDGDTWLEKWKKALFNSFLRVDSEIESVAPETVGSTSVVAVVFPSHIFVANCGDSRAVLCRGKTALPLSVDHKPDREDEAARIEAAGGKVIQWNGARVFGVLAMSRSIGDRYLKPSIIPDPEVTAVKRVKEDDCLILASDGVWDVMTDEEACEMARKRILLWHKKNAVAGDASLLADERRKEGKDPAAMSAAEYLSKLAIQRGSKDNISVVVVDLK
R111H: 13.3%
V76A: 1.51%
R49V: 3.33%
F66D: 5.1%
T119M: 10.2%
I12A: -2.3%
T160S: 5.22%
D95A: -9.55%
H55D: 11.4%
T106A: -10.6%
T86C: 49.5%
F124Q: 9.96%
T17Y: 0.674%
W41A: -11.1%
R155K: 53.5%
W134F: 46.2%
E128D: 65.4%
Y141M: -9.8%
F157W: 25.7%
Y115C: 9.68%
M68S: -1.67%
T173Q: -11.2%
V43A: 4.63%
A35R: -5.5%

Study 2
Target: Fragile X messenger ribonucleoprotein 1, C-terminal low-complexity region (Fmr1, Mus musculus, UniProt P35922)
Technique: RNA Bind-n-Seq
Molecule type: RNA
Matrix: in vitro
Tested at: 200 nM
Notes: whole 134-nt RNA, ends assumed
Together with: 150 mM KCl
Reference: input library
Direction: higher = stronger binding
Endpoint: log2 enrichment
All sequences stand within: GGGAGUUCUACAGUCCGACGAUC … UGGAAUUCUCGGGUGUCAAGG
GCCAUGCAGGUGGGCAUCUUUGGGAAGUGGGGCAAGGGGGGGAUAGGGAGGGGGGUAACACUUUGGGAACAGGUGGUCCCAGGUCGUUUC: 0.878
UCCUGUGCUACACAUCGUAUGUACCGAAUCAAAUUUUUUUAAACCCAAAUUUUUUUAAAAAAGUAUUAUGUUACGCCGUUCGGAUCUGCA: 0.434
UCCUGUGCUACACAUCGUAUGUACCGAAUCGGGGUUUUUUUGGGGUGGGGUUUUUGGGGAAAGUAUUAUGUUACGCCGUUCGGAUCUGCA: 0.908
UUCAUUCCUUGGAAGAAGCUGUACCAUCGAUACCUGAUGAAUGAAGAGCAAGCUGUCAGCAAAGUGGACGGCAUCCUGUCUAACUGUGGC: -1.98
GCAGGAAGUAAAAACAAAUGGAAAUGCUUCGGAUAGUGGCAGGGGUGGGGGUUGCUAAGGAAAGGGUGGGAUGGGAGUGGGUAAAGACUU: 0.541
UGGGAGGUGGAUUUUGUUUAUUUUUUUAGCUCAUUUCCAGGGGUGGGAAUUUUUUUUUAAUAUGUGUCAUGAACAAAGUUGUUUUUGAAA: 0.379
CAAGUCCUGUGCUACACAUCGUAUGUACCGAAUCGGAGGAAAAAAAGGUUUUUGGAAAGUAUUAUGUUACGCCGUUCGGAUCUGCACUUC: -0.883
UCAAGUCCUGUGCUACACAUCGUAUGUACCGAAUCGGGAGGGAAAAAGGGAGGGAAAGUAUUAUGUUACGCCGUUCGGAUCUGCACUUCC: 1.14
UGGGAGGUGGAUUUUGUUUAUUUUUUUGGCUCAUUUCCAGGGGUGGGAAUUUUUUUUUAAUAUGUGUCAUGAAUAAAGUUGUUUUUGAAA: 0.0736
UCAAGUCCUGUGCUACACAUCGUAUGUACCGAAUCGGGGUUGGUUGGGGUUGGGGAAAGUAUUAUGUUACGCCGUUCGGAUCUGCACUUC: 0.862
CAAGUCCUGUGCUACACAUCGUAUGUACCGAAUCGGGGUUGGGGUUGGGUUGGGGAAAGUAUUAUGUUACGCCGUUCGGAUCUGCACUUC: 1.33
UCCUGUGCUACACAUCGUAUGUACCGAAUCGGCCCCCCGGGCCCCCCGGGGCCCCCCGGAAAGUAUUAUGUUACGCCGUUCGGAUCUGCA: -0.4
GGCCCGACCUGAUCGACUUUGAUAAGCUGAAGGACUCCAAUGCCCGGCACAACCUGGAGCACGCAUUCAAUGUGGCUGAGCGCCAGCUGG: -0.187
CACAGACAACACGCACCCACACAGACACAGAGGGAAGGGGUUGGGAAGGGGACAGGGUGCACAGCAGGGCGGGGUAGGACCCCAGCCCCU: 1.12

Study 3
Target: Interferon regulatory factor 3, full length, phosphomimetic (IRF3, Homo sapiens, UniProt Q14653, residues 1-427, S386D/S396D/S398D/S402D/T404D/S405D)
Technique: protein-binding microarray
Molecule type: double-stranded DNA, one strand shown
Matrix: in vitro
Tested at: 2540 nM top
Notes: 60-bp whole probe
Together with: salmon DNA 0.4 mg/ml
Reference: random background probes
Direction: higher = stronger binding
Endpoint: fitted relative affinity
All sequences stand within: GCCTAGCAC … GTCTTGATTCGCTTGACGCTGCTG
Construct (chain): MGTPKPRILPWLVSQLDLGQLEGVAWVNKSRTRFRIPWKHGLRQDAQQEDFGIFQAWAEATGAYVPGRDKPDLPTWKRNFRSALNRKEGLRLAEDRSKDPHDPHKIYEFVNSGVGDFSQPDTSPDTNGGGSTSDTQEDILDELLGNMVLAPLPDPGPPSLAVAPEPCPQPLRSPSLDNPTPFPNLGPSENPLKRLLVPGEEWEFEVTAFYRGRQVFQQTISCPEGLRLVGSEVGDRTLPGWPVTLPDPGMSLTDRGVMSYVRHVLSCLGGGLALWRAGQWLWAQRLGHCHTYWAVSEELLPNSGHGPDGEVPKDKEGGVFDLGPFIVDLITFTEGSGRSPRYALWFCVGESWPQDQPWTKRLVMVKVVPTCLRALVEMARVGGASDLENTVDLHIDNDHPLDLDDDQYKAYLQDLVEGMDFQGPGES
TTAGATCTCAGACCGGATTAGTGCTAG: 0.0105 z-score
GACGGTATCGCGACTGGGGACGTGCTA: 0.0305 z-score
CCAGAGTCCTGTTTGATAATGTGCTAG: 0.315 z-score
TTAGGTTTCGACTTTCGGTTTGTGCTA: 4.54 z-score
TTAGGTGTCGGACTGGGTTAGTGCTAG: 0.569 z-score
GACGAATTACCTCTGGAGCAGTGCTAG: 0.0933 z-score
GACTATTTCAGTTTCGAGACGTGCTAG: 4.04 z-score
GACGGACTGCTTCGCCTGACGTGCTAG: -0.673 z-score
GACGATATCGGGTAACGAGACGTGCTA: 0.071 z-score
GACGGTCTCCATATCCTGACGTGCTAG: 1.95 z-score
TCATATATGTATATATGACTGTGCTAG: 0.727 z-score
TTAGGTATCCTTCTCCTATAGTGCTAG: 7.44 z-score
TTAGGTTTCCTTTCCCTGTAGTGCTAG: 10.2 z-score
GACGATTTCAGTCTCGGGACGTGCTAG: 2.36 z-score
GACGGTTTCCTTATCCCGACGTGCTAG: 8.42 z-score
TTAGATTTCAGATTCGATTAGTGCTAG: 3.65 z-score
GACGATTTCAGTCTCGAGTCGTGCTAG: 2.68 z-score
GACGGTATCGGGTATCGGCACGTGCTA: 1.66 z-score
GACGATTTCAGATCCGAGACGTGCTAG: 2.03 z-score
GACGGACTGCTTATCCTGGCGTGCTAG: -0.424 z-score
TTAGATTTCAGTTCCAATTAGTGCTAG: 3.34 z-score

Study 4
Target: RNA binding protein fox-1 homolog 2, RRM domain, GST-SBP tag (RBFOX2, Homo sapiens, UniProt O43251-10, residues 100-194)
Technique: RNA Bind-n-Seq
Molecule type: RNA
Matrix: in vitro
Tested at: 365 nM
Notes: natural RNA segment, single round, ends assumed
Reference: no-protein control
Direction: higher = stronger binding
Endpoint: RBNS enrichment (R)
All sequences stand within: GGGAGUUCUACAGUCCGACGAUC … UGGAAUUCUCGGGUGCCAA
Residues (chain): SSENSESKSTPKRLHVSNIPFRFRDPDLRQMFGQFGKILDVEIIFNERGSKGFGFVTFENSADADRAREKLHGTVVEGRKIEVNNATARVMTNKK
CUUAAACUUUUUAAUAUGUUGGGAUUUGAUUUUUCUAUUUAAUGGCUCUGAGUGUCAUCUAUCCAUUGCUGAGGUGGUCUCUAUAGCCUGCUCAAAGUCAAAUACAAACC: 0.426
AAUGCGUCAAAAAAUGUGCAGAAAAUGUAUUGCAUCCCUUGAUACUGUCUAACGAAUAGCACAUAACUCAUAUUGUGAAUCCUAUGGGUCUUGAGGCCUGUAGAACCAAU: 0.784
UAAAAAGUAAAAAUUGUAGUUUAAAAAAUCCUUUCCUCUUUCAUACAAAUAAGAAAUGGAAAUUGCUCGUUUAUUGUAUAAGAUAGAAGAUUCGUUUAAAGUGUUUCCCC: 0.598
AAUCUUUCUGAACUCCUGACUUACUCCAGUACACAAUGCCAAUCGCUGCACCAUUUGAUGUGCAUGUUUCAGCCCCUUUCAUUCUAAUUAUCCUAUUUCAAGUUUAUGGU: 5.27
CUCUGGGAAGCUCUUCCUCCUGCCCCUCCCAUUCCUGGUGGGGGCAGAGGAGUGUCUGCAGGGAAACAGCUUCUCCUCUGCCCCGAUGGAUGCUUUAUUUGGAUGGCCUG: 0.566
GCAUUAAACUGGAAUUGACAAGAGUGUUGAGCAUCCCUGUCUAACCUGCUCUUUCUCUUUGGUGCCCCUUAUCUCACCCCUUCCUUGGAAUUUAAUAAGUCUCAGGCAUU: 0.578
AGGCCCAGAGUGGACACAGCUGUUAAUUUCCACUGGCUAUGCCACUUCAGAGUCUUUCAUGCCAGCGUUUGAGCUCCUCUGGGUAAAAUCUUCCCUUUGUUGACUGGCCU: 0.35
UAAAUCAUUAGGAUAACUCCUGUCUGGUUCCUAAUGAAUAAAAGGUGUGUUAAAUACCAAGAUUAUUGACGUAUAUACUAAUCAGCUCCAAAUCACAUACAGUUUAAUCU: 0.608
CAUGGUGCAUGUGUGUGCAUGCGUGUAUGUGCAGCCGCCCUCCCUCACUUCAGGAGCAAGCUGUUUGCUGUGCUUACCCUUCACCUCAGUGCAGAGGUCUCCAGUGCCGA: 1.59
GUACAGGUACUUUGUCUAAGAAACAUUGGAAGCAGGUUAAAUGUUUUGUAAACUUUGAAAUAUAUGGUCUAAUGUUUAAGCAGAAUUGGAAAAGACUAAGAUCGGUUAAC: 1.05
GACCAAAUCUCACAGAAAAAUAGGCACUUUGGGCCAAAAGCUCUAAUGGAACAUUUUUAGUGGUGAUUUGGGGAAGGAAAGUUAAUGAGGUUUUUAAAAUAAGGUUUUCU: 0.434
CCAGGUGAGAGGAGACUGCCAGCGAGUCCCUAGAUCUUGUAGCCAUGAUACCACACAGUCAUUUCCCAAUCAGUGCCUCACACAUCUAUCUGAUGGUGCAGUUUUGGGGU: 0.345
